Results pooled from the literature.
Every numbered part comes from another study and shows a few of its results, in no order.

Block 1
Target: Histone acetyltransferase KAT6A, winged helix 2, GST fusion (KAT6A, Homo sapiens, UniProt Q92794, residues 85-181)
Technique: protein binding microarray
Form: double-stranded DNA, one strand shown
Medium: in vitro
Tested at: not given
Setting: 8-mer, flanks averaged, mean of 2 arrays, mostly near background
Reference: not given
Reading: higher = stronger binding
Construct (chain): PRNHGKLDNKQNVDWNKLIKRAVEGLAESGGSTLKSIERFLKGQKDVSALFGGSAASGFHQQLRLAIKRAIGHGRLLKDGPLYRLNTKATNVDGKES
Sequence	E-score
AAGAACTT	0.115
CAGCAATA	0.101
AAAGGGAT	-0.0826
ACGGGTGA	-0.0143
ACAATTCA	-0.0461
ACACAGTG	0.0359
AGTCTGGC	-0.0281
ACGAACAT	0.1
AGGCATCA	-0.014
AAAGTGGG	0.0458
CAGACCCC	-0.0897
ATTTTGCG	0.0577
ACAACATG	0.0543
AGCACTAC	0.0171
AGAGGGTC	-0.141
CATGTTGA	0.15
CTCGAGCA	0.0543
CATGCAGC	0.0336

Block 2
Target: Ras GTPase-activating protein-binding protein 1, full length (G3BP1, Homo sapiens, UniProt Q13283)
Sequence of UniProt Q13283 (whole entry, looked up): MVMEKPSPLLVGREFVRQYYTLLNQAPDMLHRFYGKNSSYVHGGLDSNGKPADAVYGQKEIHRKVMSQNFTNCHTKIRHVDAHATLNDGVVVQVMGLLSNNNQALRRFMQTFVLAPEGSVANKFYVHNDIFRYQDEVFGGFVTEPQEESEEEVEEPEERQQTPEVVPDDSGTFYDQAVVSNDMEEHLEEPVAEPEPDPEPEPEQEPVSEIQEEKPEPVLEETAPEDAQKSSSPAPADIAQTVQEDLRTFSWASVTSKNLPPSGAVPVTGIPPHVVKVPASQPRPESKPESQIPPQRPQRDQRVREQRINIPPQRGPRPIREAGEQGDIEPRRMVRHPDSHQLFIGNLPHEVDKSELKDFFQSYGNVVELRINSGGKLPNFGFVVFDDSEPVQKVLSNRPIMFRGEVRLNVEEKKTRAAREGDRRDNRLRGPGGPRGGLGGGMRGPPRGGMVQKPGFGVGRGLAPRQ
Technique: RNA Bind-n-Seq
Form: RNA
Medium: in vitro
Tested at: 200 nM
Setting: whole 134-nt RNA, ends assumed
With: 150 mM KCl
Reference: input library
Reading: higher = stronger binding
Sequence	log2 enrichment
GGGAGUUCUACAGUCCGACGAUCAGUCCUGUGCUACACAUCGUAUGUACCGAAUCGGGAAAAAGGAAAAAGGGGAAAAAGGAAAGUAUUAUGUUACGCCGUUCGGAUCUGCACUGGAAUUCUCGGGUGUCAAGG	-0.915
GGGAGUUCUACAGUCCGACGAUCUAACUUUAGAGGAGGAUCUGAUGGAUAUGGCAGUGGACGUGGAUUUGGGGAUUGCUAUAAUGGGUAUGGAGGAGGACCUGGAGGUGGCAAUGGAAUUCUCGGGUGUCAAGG	0.381
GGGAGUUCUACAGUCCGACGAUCUGGGAGGUGGAUUUUGUUUAUUUUUUUAGCUCAUUUCCAGGGGUGGGAAUUUUUUUUUAAUAUGUGUCAUGUAUAAAGUUGUUUUUGAAAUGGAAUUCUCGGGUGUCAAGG	0.378
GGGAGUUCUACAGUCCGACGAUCAAGUCCUGUGCUACACAUCGUAUGUACCGAAUCGGGGCCCGGGGCCCGGGGCCCGGAAAGUAUUAUGUUACGCCGUUCGGAUCUGCACUUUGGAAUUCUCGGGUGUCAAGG	-1.45
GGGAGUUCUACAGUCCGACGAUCUCCUGUGCUACACAUCGUAUGUACCGAAUCGGUUUUUUUGGUUUUUUUGGUUUUUUUGGAAAGUAUUAUGUUACGCCGUUCGGAUCUGCAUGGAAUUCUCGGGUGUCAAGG	-0.527
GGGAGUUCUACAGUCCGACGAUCUGUGACAGGAGAGCGCUUGAAGAGCAAUGUGACGAGGACCAUCAGACACCGAGGGAUGGAGAGACAUCCCACAGGGCCCAGAUUCAGCAGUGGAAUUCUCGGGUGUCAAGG	0.218
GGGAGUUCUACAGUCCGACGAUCUGGCCCUGGUGGCAUGCGGGGAGGAAGAGGUGGCCUCAUGGAUCGUGGUGGUCACGGUGGAAUGUUCAGAGGUGGCCGUGGUGGAGACAGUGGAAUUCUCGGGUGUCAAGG	-0.0378
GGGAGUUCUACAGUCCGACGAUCUGACUUUAGAGGAGGAUCUGAUGGAUAUGGCAGUGGACGUGGAUUUGGGGAUGGCUAUAAUGGGUAUGGAGGAGGACCUGGAGGUGGCAAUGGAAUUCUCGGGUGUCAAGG	0.426
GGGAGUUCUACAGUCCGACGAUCCACAGACAACACGCACCCACACAGACACAGAGGGAAGGGGUUGGGAUGGUGACAGGGUGCACAGCAGGGCGGGGUAGGACCCCAGCCCCUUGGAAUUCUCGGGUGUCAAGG	1.37
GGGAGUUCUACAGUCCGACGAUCGUCCUGUGCUACACAUCGUAUGUACCGAAUCGGGAAAAAGGGGAAAAAGGAAAAAGGGAAAGUAUUAUGUUACGCCGUUCGGAUCUGCACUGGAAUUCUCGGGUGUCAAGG	-0.469

Block 3
Target: RING finger protein unkempt homolog, zinc fingers 1-6, GST-SBP tag (UNK, Homo sapiens, UniProt Q9C0B0, residues 30-357)
Technique: RNA Bind-n-Seq
Form: RNA
Medium: in vitro
Tested at: not given
Setting: RNA with constant flanks, human and mouse sites, ends assumed
Reference: input RNA pool
Reading: higher = stronger binding
Construct (chain): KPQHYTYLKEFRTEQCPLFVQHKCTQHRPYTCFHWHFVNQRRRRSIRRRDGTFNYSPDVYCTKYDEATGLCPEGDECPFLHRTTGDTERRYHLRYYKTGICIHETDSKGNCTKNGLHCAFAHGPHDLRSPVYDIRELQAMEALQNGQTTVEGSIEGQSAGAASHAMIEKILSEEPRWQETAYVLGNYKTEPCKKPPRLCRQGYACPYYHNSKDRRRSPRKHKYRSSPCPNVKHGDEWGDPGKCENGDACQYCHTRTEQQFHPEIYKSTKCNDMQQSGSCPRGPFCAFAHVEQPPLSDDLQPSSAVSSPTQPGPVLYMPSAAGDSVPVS
Sequence	bound/input enrichment
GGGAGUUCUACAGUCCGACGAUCGAGCGUCUUGCCCGCACUGGGAUCAUCGUGACCACUAGUGAGGCUGUCCUCCUACAGCUGGUGGCUGACAAAGACCACCCGAAGUUCAAGGAAAUUCAGAACCUAAUUAAGGCGAGUGCCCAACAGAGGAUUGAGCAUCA	0.188 ratio
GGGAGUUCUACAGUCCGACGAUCACCACGCUCAACCUCUUUCCGCAGGUGCCGCGGUCUCAGGACACACUGAAUAAUAAUUCUCUGGGCAAAAAGCACAGUUGGCAGGAUCGGGUGUCUCGAUCAUCCUCACCCCUGAAGACACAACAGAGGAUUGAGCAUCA	0.37 ratio
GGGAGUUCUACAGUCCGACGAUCACCUGGAAUAAUGAGAUCUUACCUAACUGGGAAACAAUGUGGUGCUCUAGAAAAGUUCGAGAUUUAUGGUGGCAGGGAAUCCCUCCAAGUGUGAGAGGCAAAGUCUGGAGCUUAGCCAUUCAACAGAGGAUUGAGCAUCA	0.317 ratio
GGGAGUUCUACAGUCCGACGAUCCAGGGCUUAUAUUGUGUGGCUAUCCGUGACUUCAAACAGGCAGCAGAGCUCUUUCUCGACACUGUUUCUACGUUUACAUCGUAUGAGCUCAUGGAUUACAAGACAUUUGUGACUUACACUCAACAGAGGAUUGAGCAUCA	0.0928 ratio
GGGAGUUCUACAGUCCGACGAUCGCAUCCUGUGAAAAUACUCUUAAUACGUUAAGAUAUGCAAAUAGAGUAAAGGAGUUUGGAAUUAGUCCUUCAGACAUUCCCUUCUCCCAGGGUGGUGGCAGUCGCCCUGAUCUCUCUCCUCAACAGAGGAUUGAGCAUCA	0.125 ratio
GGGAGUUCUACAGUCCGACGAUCUCUUUUGAGGUGAUGGUGCUGGCCGAGCUGUUUCUGGAGAUGCUCCAGAGGGAUUUUGGCUAUAGAGUUUAUAAGAUGCUACUGAGCCUUCCUGAAAAGGUCGUGUCCCCACCUGAACCUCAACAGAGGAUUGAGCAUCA	0.927 ratio
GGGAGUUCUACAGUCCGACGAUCGGAGCCAGACAUCUUGAGAGUGAAAAACUUGCUCAAAUAUUGGCAGCCAGAGAAUUGGAAAUUAAACAGAUUCCAUCUGAUGGUCACUGUAUGUAUGGAGCACUUGAGGAUCAGCUGAGACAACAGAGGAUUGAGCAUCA	0.116 ratio
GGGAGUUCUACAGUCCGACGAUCACAGCCCCGUGGGUGUGUGGGAGGCCGGGCGCUCUGGGGUCUGUCUGUCAGUGCAAUCGUUUAGUGUUUUUUCAGUGGGGCGGGGCGGGAAGCGGGUGGGACCGGGCAGCCAGUUCUCAACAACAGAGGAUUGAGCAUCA	19 ratio
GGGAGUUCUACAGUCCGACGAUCCGGAGGGUCAUUAGCUUUGGCUCAAGAUCCUACAGAAGAUGAAGAAAUAGUGGAAGAUUCAAUAAUUGAAGAUGAAGAUGAUGAAGCUGAAGUAGAAGAAGAUGAACCCACAGAUUUGGCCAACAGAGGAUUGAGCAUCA	0.474 ratio
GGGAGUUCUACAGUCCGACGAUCCAACAGCAGCGAUUACUAGACAUUGCCAAGAAGGAAAAUGUCAAAAUUAGUGAUGAGGGAAUAGCUUAUCUUGUUAAAGUGUCAGAAGGAGACUUAAGAAAAGCCAUUACAUUUCUUCAACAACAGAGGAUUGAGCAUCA	0.302 ratio
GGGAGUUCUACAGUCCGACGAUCAAACUGCAUUCCAGCGCCAGUCCCAGUGCUCAGCAGUACGAUGCUUCCAGUGCAGUACUUUUAGACAACCUCCCUGGAGUCCGGUGGCUCACACUUCCACUGGAAAUCAAGAUGGAAUUACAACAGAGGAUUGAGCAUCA	0.241 ratio

Block 4
Target: RNA binding protein fox-1 homolog 2, RRM domain, GST-SBP tag (RBFOX2, Homo sapiens, UniProt O43251-10, residues 100-194)
Technique: RNA Bind-n-Seq
Form: RNA
Medium: in vitro
Tested at: 365 nM
Setting: natural RNA segment, single round, ends assumed
Reference: no-protein control
Reading: higher = stronger binding
Target sequence (chain): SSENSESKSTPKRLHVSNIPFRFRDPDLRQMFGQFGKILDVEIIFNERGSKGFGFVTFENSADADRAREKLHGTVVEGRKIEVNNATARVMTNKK
Sequence	RBNS enrichment (R)
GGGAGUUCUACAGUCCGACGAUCACUUUUCAGAGAACCCUUCUGUGCCAGGACUCGUGGAAGCCUGGAGCGGAGCAGAUGCCUGUCCAAGCUGGUCAAGUCCUUCUAGUUCUUGGGCUGAAAUAAGUAACAGUUGGAAUUCUCGGGUGCCAA	0.444
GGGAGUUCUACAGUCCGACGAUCGCUCUUUGUCUGCUCAAAGGAAACUUGAAAUAUCUGAGUAAAAGUCAAAGAAACCCAGCUAAGUAAGCAACAUAAAGCCUGUUGUGUCAGGUCCUGCAGGUCGAUGUGUGUGGAAUUCUCGGGUGCCAA	0.426
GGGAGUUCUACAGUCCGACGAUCGGUUGAUGCUCUAGAGCCACUCUUUCUUAAUGCCAGAUUAUUUAAAGAAAAAUACAAGACAAAAACCUUCUAGCACUUUGUAAACACAGUGAAUAACCUCUUGGAGUAUUUGGAAUUCUCGGGUGCCAA	0.369
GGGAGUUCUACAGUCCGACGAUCGGCUUUUACUUUGCACACCUUCAUUGCUUAAGAAGAAACUCAGGGUGCUGAGAAAGAUAUGUAUGCUGAAGGCUGUGAUUCCUCUUUUUAUUGUACCUAUGCCUGGGUGCUGGAAUUCUCGGGUGCCAA	0.839
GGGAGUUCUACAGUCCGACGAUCAGUCUCUCUGGUUUGUCUUCUGACCCAACAGACCUGGAUCCCUGAGUCCUACCCACUCUGUCCCCAUCACCUUUCUCCACUGGGUGCAGAUCCUAGCUCCGCCUCCUGGGUGGAAUUCUCGGGUGCCAA	0.313
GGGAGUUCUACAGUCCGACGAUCGGAGGCUGUUUAUUUCAACCUUUUUAAAAAUUGUGUUUUUUAGUAAAAUGGCUUAUUUUUUCCCAAAGGUGGAAUUUAGCAUUUUGUAAUGAUGAAUAUAAAAAUACCUGUGGAAUUCUCGGGUGCCAA	0.569
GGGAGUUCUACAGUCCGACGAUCGACCAAGGUAAGAUACUCAAUCAAGGCCAUUUAAUCAAUCACAUUCAUCUCAUAAUAGAAACACAUUCGUAUUCUAAUGAUCAAUCUAAAGUUCCCGUUGAGGAGGAGGCUGGAAUUCUCGGGUGCCAA	0.398
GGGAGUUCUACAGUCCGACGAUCCAUAGCAUCCAAUGAUUUUUUGGUGUCUGGCUAUGAAUACUAUGGUUGAGAAUUGUAUUCAGUGAUUGUUUCUGCACACUUUUCAAAUAAAAAAUGAAUUUUUAUCAAUUUGGAAUUCUCGGGUGCCAA	1.16
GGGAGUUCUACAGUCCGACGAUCUCCCACAGGGGCCAUGUCCUCUCUUAAUAGGUGGCACUACCCCAAACCCAUCUUUUGUUCUCCUAUAUCCUCCUUCUUCUGUUCCAUUUCAGUUCAGUUUCAGCGGUGCCUGGAAUUCUCGGGUGCCAA	0.912
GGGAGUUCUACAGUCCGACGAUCUGGGGCCUAUCAGUGUGCCCCCCAUCCUGGCCCAUCAGUGUACCCCCGCCCAGGCUGGCCAGCCCCACAGCCCACGUCCUGUCAGUGCCGCCGCCUCGCCCACCGCAUGCUGGAAUUCUCGGGUGCCAA	10.6
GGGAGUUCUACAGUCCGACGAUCUGCAAGUGAACUUGGGAGGGGGCACGGGCCUGUAGAUCAGGGAUAGCGCUGUUGAUCCCCUCUCUGUGGCUCCAACCCGUUGGGUCCCUUGCUGCAAACCCAUGAAGCUGUGGAAUUCUCGGGUGCCAA	0.434
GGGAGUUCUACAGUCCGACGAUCAUUCUCACAUGACAUUUCAAUUCAUCUCUACCAAUGAAGAGCGUCCUCCCUGUUGGGAGCAAUCUGUACGUCUGUUUUGUCAGCUUCAGGUUCUGGUACUUUGAAGUCAAUGGAAUUCUCGGGUGCCAA	0.293
